# Assay results of several laboratories.
# ± marks the error that the study gave.
SMILES,test,system,conditions,how to read,quantity,value
CC(C)CC(=O)OC[C@H]1O[C@@](C#N)(c2ccc3c(N)ncnn23)[C@H](O)[C@@H]1O,,Humans plasma,"5 µM, 60 min",,remaining compound,0.12 ± 0.01%
CC(C)(C)c1cc(-n2nc3ccccc3n2)c(O)c(C(C)(C)C)c1,exposure assessment,"human, age 1-2 years","concentration not given, spray sunscreen, 95th percentile",,"daily dermal uptake, percentile",24.4 ng/kg body weight/day
O=C(O)CCC(CP(=O)(O)O)C(=O)O (centres unmarked),,rat plasma,"28 days, -80 °C, frozen storage",,stability,stable
CO[C@H]1C[C@@H]2CC[C@@H](C)[C@@](O)(O2)C(=O)C(=O)N2CCCC[C@H]2C(=O)O[C@H]([C@H](C)C[C@@H]2CC[C@@H](OC(=O)NCCOCCOCCOCCOCCOCCOCCOCCOCCC(=O)N3CCc4cc(Cn5nc(-c6ccc7oc(N)nc7c6)c6c(N)ncnc65)ccc4C3)[C@H](OC)C2)C[C@@H](O)[C@H](C)/C=C(\C)[C@@H](O)[C@@H](OC)C(=O)[C@H](C)C[C@H](C)/C=C/C=C/C=C/1C,phase 1 dose escalation,advanced solid tumour patients,"intravenous, 6 mg weekly, any grade",,deaths due to TRAEs,0%
Cn1c(-c2ccc(C(N)=O)cc2F)nnc1C(C)(C)Oc1c(F)cc(Cl)cc1F,,human,"oral, 30 mg, single ascending dose",,medical device site reaction TEAE,0%
CC[C@H](C)CCCCC(=O)N[C@@H](CCN)C(=O)N[C@H](C(=O)N[C@@H](CCN)C(=O)N[C@H]1CCNC(=O)[C@H]([C@@H](C)O)NC(=O)[C@H](CCN)NC(=O)[C@H](CCN)NC(=O)[C@H](CC(C)C)NC(=O)[C@@H](Cc2ccccc2)NC(=O)[C@H](CCN)NC1=O)[C@@H](C)O,,"human, critically ill, no AKI, plasma","dose not given, mean",,fAUC(0-24) steady state,49.5 mg·h/L
CCCCCOc1ccc(-c2ccc(-c3ccc(C(=O)N[C@H]4C[C@@H](O)[C@@H](OCC[N+](C)(C)C)NC(=O)[C@@H]5[C@@H](O)[C@@H](C)CN5C(=O)[C@H]([C@@H](C)O)NC(=O)[C@H]([C@H](O)[C@@H](O)c5ccc(O)cc5)NC(=O)[C@@H]5C[C@@H](O)CN5C(=O)[C@H]([C@@H](C)O)NC4=O)cc3)cc2)cc1,,"adult ICU patients, mITT, serum","dose not given, day 14",,potassium,4.1 mmol/L
COC[C@@H](CC(C)C)NC(=O)c1ccc(C)c(C)c1,,"Hsd:ICR (CD-1) mouse, female, bone marrow","oral, 1352 mg/kg, 48 h",,PCE to total erythrocyte ratio,0.513
CN1CC[C@@H](c2c(O)cc(O)c3c(=O)cc(-c4ccc(C(F)(F)F)cc4Cl)oc23)[C@@H]1CO,item: Pneumonia,relapsed B-cell malignancies,"oral, 150 mg, grade 3-4, intermittent dosing",,patients with adverse event,0%
C[C@@H]1NC(=O)[C@H](CCCCNC(=O)CO/N=C/C(=O)NCCCC[C@@H]2NC(=O)[C@@H](Cc3ccccc3)NC(=O)[C@H](CC(=O)O)NC(=O)CNC(=O)[C@H](CCCNC(=N)N)NC2=O)NC(=O)CNC(=O)[C@@H]2CCCN2C(=O)[C@H](CCCCNC(=O)CO/N=C/C(=O)NCCCC[C@@H]2NC(=O)[C@@H](Cc3ccccc3)NC(=O)[C@H](CC(=O)O)NC(=O)CNC(=O)[C@H](CCCNC(=N)N)NC2=O)NC(=O)[C@H](CCCCNC(=O)CCNC(=O)CCNC(=O)CCNC(=O)[C@H](CCCCN)NC(=O)[C@H](Cc2ccccc2)NC(=O)CNC(=O)CN2CCCNCCNCCCNCC2)NC(=O)[C@H](CCCCNC(=O)CO/N=C/C(=O)NCCCC[C@@H]2NC(=O)[C@@H](Cc3ccccc3)NC(=O)[C@H](CC(=O)O)NC(=O)CNC(=O)[C@H](CCCNC(=N)N)NC2=O)NC(=O)CNC(=O)[C@@H]2CCCN2C(=O)[C@H](CCCCNC(=O)CO/N=C/C(=O)NCCCC[C@@H]2NC(=O)[C@@H](Cc3ccccc3)NC(=O)[C@H](CC(=O)O)NC(=O)CNC(=O)[C@H](CCCNC(=N)N)NC2=O)NC1=O [copper-64 labelled],,"normal mice, intestine","intravenous, 0.74 MBq, 3 h post-injection",,tissue uptake,2.44 ± 0.29 %ID/g
COc1cc2c(Oc3ccc4[nH]c(C)cc4c3F)ccnc2cc1OCC1(N)CC1,,paediatric recurrent refractory sarcoma,"concentration not given, whole group",,grade 1 or 2 Vomiting,26.5%
CC(=O)c1ccccc1,,,pH 7.4,,logD (chromatographic),3.18
C[C@]1(CO)Cc2ncn(-c3ccc(C#N)c(Cl)c3)c2C(=O)O1,,Japanese subjects,3 mg single dose,,drug-related adverse event incidence,0%
O=S(=O)(Nc1ccccc1)c1ccc(NC(=S)Nc2ccccc2)cc1,item: TBIL,"male mouse, blood","oral, 5 mg/kg daily, 14 days",,blood chemistry level,0.65 mg/dL
CC[C@H](C)[C@@H]1NC(=O)[C@@H]2CCCN2C(=O)[C@H](CC(C)C)NC(=O)[C@H](CC(C)C)NC(=O)CNC(=O)[C@@H](NC(=O)[C@@H](NC(=O)[C@H](CC(=O)O)NC(=O)CNC(=O)[C@@H](NC(=O)[C@H](C)NC(=O)CNC(=O)[C@H](CCCCN)NC(=O)[C@H](CC(C)C)NC(=O)[C@H](CC(C)C)NC(=O)[C@H](CCCCN)NC(=O)CNC(=O)[C@@H](NC(=O)[C@@H](N)CC(C)C)C(C)C)C(C)C)C(C)C)CSSC[C@@H](C(=O)O)NC1=O,"RNA-seq, item: Zc3h12d mRNA","mouse traumatic brain injury, frontal cortex and hippocampus",dose not given,relative to: TBI plus compound vs TBI,log2 fold change,-1.8
O=c1cc(-c2ccc(O)c(O)c2)oc2cc(O)cc(O)c12,,"Sprague-Dawley rat, male, obese, urine","oral, 100 mg/kg of neohesperidin, 48 h, after β-glucuronidase/sulfatase, total",,amount excreted in urine,148 ± 12.7 ng
N#C[C@@]1(n2ccc(N)nc2=O)O[C@H](CO)[C@@H](O)[C@H]1O,,"mouse CD-1, lung","intravenous, 15 mg/kg, 7 h",,lung concentration,321 ng/g
N#Cc1cc(NC(=O)[C@H]2c3ccccc3C(=O)N(CC(F)(F)F)[C@@H]2c2cccnc2)ccc1F,,"Sprague Dawley rat, both sexes","oral, 7 days",,well tolerated repeated dose,≤ 350 mg/kg
CCC[C@@](N)(CO)CCc1ccc(OCCCCCC(C)C)cc1,,"hound dogs, male","oral, 20 mg/kg, capsule, fed state, median",,Tmax,6 h
CN(C)CCCN1c2ccccc2CCc2ccccc21,,human whole blood,"1000 ng/mL, 60 min, 37 °C",,blood-to-plasma ratio,1.25 ± 0.105
CCc1ccc(CC/C=C/c2ccc3c(c2)C(=O)CC3)cc1,,"Sprague-Dawley rat, female","oral, 450 mg/kg/day, 14 days",,Phosphorus,2.44 mM
Cc1cccc(Cn2nc(C3CC3)c3c(NC(=O)c4cnc5cc(OCCN6CCN(C)CC6)ccn45)cccc32)n1,item: Vomiting,human pancreatic ductal adenocarcinoma,"oral, dose not given, all-causality",,adverse events incidence,33.3%
CC(C)(O)c1cc(Nc2cc(Oc3cn(C4CC4)nc3C3CCOCC3)ccn2)ccn1,item: Diarrhea,Japanese patients with advanced cancer,"oral, dose not given, any grade",,treatment-emergent adverse events,0%
CC(C)n1c(C2CCNCC2)nc2c([N+](=O)[O-])c(Br)c(Br)cc21,,patients with AML,"125 mg, respiratory distress",,AE leading to discontinuation,2%
CC(C)c1nc(N(C)S(C)(=O)=O)nc(-c2ccc(F)cc2)c1/C=C/[C@@H](O)C[C@@H](O)CC(=O)O,,healthy human subjects,"oral, dose not given, study CL-0537 safety set",,incidence of eye disorders,3.6%
O.O.O.O.O.O.[Cl-].[Cl-].[Co+2],,"rat male, faeces","oral, 10 mg/kg single, day 2",relative to: vehicle control subtracted,cobalt in faeces,3.91 µg/g
CCCCCCCCCCCCCCCC(=O)N[C@@H](CCC(=O)NCCCC[C@H](NC(=O)[C@H](CC(=O)O)NC(=O)[C@H](CO)NC(=O)[C@@H](NC(=O)[C@H](Cc1ccccc1)NC(=O)[C@@H](NC(=O)CNC(=O)[C@H](CCC(N)=O)NC(=O)[C@H](CO)NC(=O)[C@@H](N)Cc1c[nH]cn1)[C@@H](C)O)[C@@H](C)O)C(=O)N[C@@H](CO)C(=O)N[C@@H](CCC(=O)O)C(=O)N[C@@H](Cc1ccc(O)cc1)C(=O)N[C@@H](CC(C)C)C(=O)N[C@@H](CC(=O)O)C(=O)N[C@@H](CO)C(=O)N[C@@H](CCC(=O)O)C(=O)N[C@@H](CCCNC(=N)N)C(=O)N[C@@H](C)C(=O)N[C@@H](CCCNC(=N)N)C(=O)N[C@@H](CC(=O)O)C(=O)N[C@@H](Cc1ccccc1)C(=O)N[C@H](C(=O)N[C@@H](C)C(=O)N[C@@H](Cc1c[nH]c2ccccc12)C(=O)N[C@@H](CC(C)C)C(=O)N[C@@H](CCC(=O)O)C(=O)N[C@@H](C)C(=O)NCC(=O)NCC(=O)O)C(C)C)C(=O)O,item: Headache,humans CrCl at least 90 mL/min,"subcutaneous, 100 µg single dose",,treatment-related adverse events,25%
Cn1cncc1-c1c(F)cncc1NC(=O)c1c(N)nn2cc(F)cnc12,,human patients,"oral, 220 mg once daily",,grade ≥3 platelet decrease incidence,0%
O=c1ccc2cc3ccoc3cc2o1,three freeze-thaw cycles,rat plasma,"8 ng/mL, -70 °C freeze",,accuracy,99.5%
CN(C(=O)n1cnc(-c2ccc[n+]([O-])c2)c1)C1CCCCC1,,"Wistar rat, midbrain","oral, 10 mg/kg/day, 4 h, repeated 5 days",,concentration,107 ± 38.6 ng/g
C[C@@H]1OC(=O)NN=C1c1ccc(-c2ccc(F)cc2)c(C(F)(F)F)c1,"phase I trial, item: non-cardiac chest pain",human patients,"20 mg load, 1 mg daily, worst grade 1",,patients with TEAE,0%
C#CC[C@H](NC(=O)[C@H](Cc1ccccc1)NC(=O)CCNC(=S)Nc1ccc2c(c1)C(=O)OC21c2ccc(O)cc2Oc2cc(O)ccc21)C(=O)N[C@@H](C)C(=O)N[C@@H](CC(C)C)C(=O)N[C@@H](CC(=O)O)C(=O)N[C@@H](Cc1c[nH]c2ccccc12)C(=O)N[C@@H](CO)C(=O)N[C@@H](Cc1c[nH]c2ccccc12)C(=O)N[C@@H](CC(C)C)C(=O)N[C@@H](CCC(N)=O)C(=O)N[C@H](C(=O)N[C@@H](CCC(=O)O)C(N)=O)[C@@H](C)O,dynamic light scattering,PBS/DMSO,10 nM,,hydrodynamic diameter,359 ± 107 nm
CC(C)C[C@H](NC(=O)[C@H](CCCCN)NC(=O)OCC1c2ccccc2-c2ccccc21)C(=O)N[C@H](C(=O)N[C@@H](Cc1ccccc1)C(=O)N[C@@H](Cc1ccccc1)C(=O)N[C@@H](CCCCN)C(=O)NCC(=O)N[C@@H](Cc1ccccc1)C(=O)N[C@@H](C)C(=O)N[C@@H](Cc1c[nH]c2ccccc12)C(=O)N[C@@H](CC(N)=O)C(=O)N[C@H](C(=O)N[C@H]1CSSC[C@@H](C(=O)N[C@@H](Cc2c[nH]cn2)C(=O)N[C@@H](CCCNC(=N)N)C(=O)N[C@@H](CCCNC(=N)N)C(=O)N[C@@H](C)C(=O)N[C@@H](CC(N)=O)C(N)=O)NC(=O)[C@H](C(C)C)NC(=O)[C@H](CCCNC(=N)N)NC(=O)[C@H](C(C)C)NC(=O)CNC(=O)[C@H](CC(N)=O)NC(=O)[C@H](CCCNC(=N)N)NC(=O)[C@H](Cc2ccc(O)cc2)NC(=O)[C@H](C(C)C)NC1=O)C(C)C)C(C)C,,ICR mouse,"ip, 5 mg/kg",direction not given,tremor score,0
O=C(Nc1ccccc1)C1CCN(C(=O)Oc2cccnc2)CC1,adverse event reporting,healthy women,"oral, 60 mg, 7 days",,subjects with sleep disorder,0%
O=c1nc(NO)ccn1[C@@H]1O[C@H](CO)[C@@H](O)[C@H]1O,,rat amniotic fluid dialysate,"25 ng/mL, 6 h, 10 °C, low QC concentration, together with: molnupiravir",,autosampler stability,98.9 ± 3.13%
O=C1Nc2cc3[nH]nc(-c4ccncc4)c3cc2CN1Cc1ccccc1,CTCAE v4.03,advanced solid tumour patients,"intravenous, 0.9 mg/kg, schedules 1/2",,patients with dizziness,0%
CC(C)[C@@H]1NC(=O)CNC(=O)[C@H](CC(N)=O)NC(=O)[C@H](CCCNC(=N)N)NC(=O)[C@H](Cc2ccc(O)cc2)NC(=O)[C@H](C(C)C)NC(=O)[C@@H](NC(=O)[C@@H](NC(=O)[C@H](CC(N)=O)NC(=O)[C@H](Cc2c[nH]c3ccccc23)NC(=O)[C@H](C)NC(=O)[C@H](Cc2ccccc2)NC(=O)CN)C(C)C)CSSC[C@@H](C(=O)N[C@@H](Cc2c[nH]cn2)C(=O)N[C@@H](CCCNC(=N)N)C(=O)N[C@@H](CCCNC(=N)N)C(=O)N[C@@H](C)C(=O)N[C@@H](CC(N)=O)C(N)=O)NC(=O)[C@H](C(C)C)NC(=O)[C@H](CCCNC(=N)N)NC1=O,"circular dichroism, item: antiparallel β-sheet",PBS,"80 µM, pH 7.4, together with: LPS 1 µM",,secondary structure content,36.4%
NC(=O)[C@H]1CCN(c2ncnc(N)c2F)C[C@@H]1N1CCC[C@@H](Nc2cc(Cl)cc(C(F)(F)F)c2)C1=O,,B-cell malignancy patients,"oral, 410 mg twice daily, dose",,grade ≥3 anaemia,0%

# Some of these lines once more:
SMILES,test,system,conditions,how to read,quantity,value
CC[C@H](C)CCCCC(=O)N[C@@H](CCN)C(=O)N[C@H](C(=O)N[C@@H](CCN)C(=O)N[C@H]1CCNC(=O)[C@H]([C@@H](C)O)NC(=O)[C@H](CCN)NC(=O)[C@H](CCN)NC(=O)[C@H](CC(C)C)NC(=O)[C@@H](Cc2ccccc2)NC(=O)[C@H](CCN)NC1=O)[C@@H](C)O,,"human, critically ill, no AKI, plasma","dose not given, mean",,fAUC(0-24) steady state,49.5 mg·h/L
Cn1cncc1-c1c(F)cncc1NC(=O)c1c(N)nn2cc(F)cnc12,,human patients,"oral, 220 mg once daily",,grade ≥3 platelet decrease incidence,0%
